# Experimental data gathered from unrelated publications.
# Every numbered part comes from another study and shows a few of its results, in no order. Changes are numbered by the printed parent chain.

# Sample 1 — target: CCNB2, cyclin fold, Cln2 fusion (human); method: yeast growth competition, sequencing; sample: yeast; setting: weak parent motif; reference: not given; reading: higher = stronger binding
# Parent: RBL1 docking peptide (human); GSAKRRLFGEDPP
Substitution,normalised enrichment score
E10K,0.0199
G9F,0.277
L7S,-0.44
R5M,-0.397
D11P,0.0702
L7E,-0.489

# Sample 2 — method: RNA Bind-n-Seq; form: RNA; sample: in vitro; concentration: 100 nM; reference: input RNA pool; reading: higher = stronger binding
# Target: RING finger protein unkempt homolog, zinc fingers 1-6, SBP tag (UNK, Homo sapiens, UniProt Q9C0B0, residues 30-357)
# Sequence of UniProt Q9C0B0 (30-357, looked up): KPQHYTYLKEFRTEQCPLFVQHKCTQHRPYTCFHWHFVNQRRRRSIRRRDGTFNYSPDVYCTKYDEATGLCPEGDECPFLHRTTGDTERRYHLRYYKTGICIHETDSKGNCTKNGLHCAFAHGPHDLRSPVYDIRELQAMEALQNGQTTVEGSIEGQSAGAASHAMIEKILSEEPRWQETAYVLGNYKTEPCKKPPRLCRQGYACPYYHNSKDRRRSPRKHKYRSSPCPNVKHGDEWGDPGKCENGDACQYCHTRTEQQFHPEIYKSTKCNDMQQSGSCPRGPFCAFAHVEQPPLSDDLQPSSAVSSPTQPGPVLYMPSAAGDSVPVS
# Setting: RNA with constant flanks, vertebrate orthologous sites, ends assumed
Oligonucleotide,bound/input enrichment [ratio]
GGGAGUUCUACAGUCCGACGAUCGUUGGUGCAGAGUGCUCUCUGUACCAGUGCUCAUCACCCCUUCUUCAUACCAACUGUCCCUAGUUCUAGGAAUUUAAUAUUUUUAAAAGUUUUACAUUGCUGUAUAUUCAAAGAUUUGUUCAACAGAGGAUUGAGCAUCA,1.11
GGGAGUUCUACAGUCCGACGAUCGACCUUGGAGCUAAAACCUGGGCCGGGGGACUAGAAAAGUAAAACAAGCUUGUAAAAUGAUAGCCAUAUGCAGCUGCACAGCAGUACUAUCACUAGCACCUGUGUUAAUGUACUUACAGACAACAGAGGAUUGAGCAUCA,0.382
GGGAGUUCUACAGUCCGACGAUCUUAUACGGGCCUCGCAGAGUUGAAGUAAUUGAAGAAGAAACUUCACAAUAACUGUCAUCUUAGUGUCUCUGACUAGGUGUGGAAUAAAUUUUGUUCGUUGAUCAUUUUCAAACCCCAGAACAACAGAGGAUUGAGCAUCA,0.619
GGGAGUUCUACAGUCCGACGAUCGCUCCUGUAUAGCAAGUAGAAUGGGUUCCUCCUACUUCUCCCAGGAGCAAAAAGCCCAAAGAGAUUCCAGACACAUCUGAUUAUACUGUUCUGUUUUUGUUUUCUGUUAUUCUUCCGUAUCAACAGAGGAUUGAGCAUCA,0.521
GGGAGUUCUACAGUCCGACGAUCCUUUAUGGGCCUCGAAGGGUUGAAAUAAUGGAAGAAGACAGUGAACAGUAACCUUCAAUUUAGUAUUUAUGCCUAGGUGUGAUAUAAAUGUGUGUAUGUGGUGGUUUUUUUUUUUUGUUUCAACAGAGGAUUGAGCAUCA,3.63
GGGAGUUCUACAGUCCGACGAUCCAUCUCUCGUUUUAUAUGUCAAAAAAGGCUUUGAAUUUUUAAAAAAUUGCUAGUUUUGAUUAGCUCUACCUUCAUGAAGUGUUAUAAUUCACCACAAACAGAUAUCUGUCUGAAUUACUUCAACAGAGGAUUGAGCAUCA,0.369
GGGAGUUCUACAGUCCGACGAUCCCGAAAGGCCAGAUUCCCUCCUCCCUUCUACUGCUUCUACCAACUGGAAGCACAGAAAACUAGAACUUCAUUUAUUUUGGUUUUUUUUUUUUUAAAGAUAUGUUGAUUUCUUGUAACAUCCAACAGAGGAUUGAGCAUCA,0.853

# Sample 3 — method: RNA Bind-n-Seq; form: RNA; sample: in vitro; concentration: 365 nM; reference: no-protein control; reading: higher = stronger binding
# Target: RNA binding protein fox-1 homolog 2, RRM domain, GST-SBP tag (RBFOX2, Homo sapiens, UniProt O43251-10, residues 100-194)
# Setting: natural RNA segment, single round, ends assumed
# Target sequence (chain): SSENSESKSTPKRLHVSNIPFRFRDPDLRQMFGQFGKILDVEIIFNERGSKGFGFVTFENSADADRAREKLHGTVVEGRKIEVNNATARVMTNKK
Oligonucleotide,RBNS enrichment (R)
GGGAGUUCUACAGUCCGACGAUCUGUUGUAUUAUAACAGUAUUACAUGUCAACGGUGUGGUUAUGACCUUUAUUUAUAUAAAAACCAAAUAUUUAGUCAAUUUACCGUGUCUUAAUUUAAUCUUUGUACACCUUGGAAUUCUCGGGUGCCAA,0.665
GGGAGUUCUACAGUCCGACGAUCAAAUCAAGUCCCAUGCUCCAAUCUCACCCCUGUCCAGGAUAGGAGCAAACUCAACCAAGAACUGCUCAUUCAGACUCGUGAAACGACCCAGAGAGGGCUCAGAAACGGCCUGGAAUUCUCGGGUGCCAA,0.508
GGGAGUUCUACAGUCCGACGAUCCUGUGGGCCACCACAGUCUGCACAGAAAGGUGGCACCCGGAGUGGUUGUGGCCCUCACUACCAAGCCACGGGCAGCCCAUUUCCAGUAGGAUGGCGGUUUGGAUUUCUUUUGGAAUUCUCGGGUGCCAA,0.335
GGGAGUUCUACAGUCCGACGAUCUCACUCCCCGGUGCCUAUGGGGUCCCGGUGUACCUAAAGGGAGAAGGACCCCAUGUGCUAGCCAGAAAUAUACUGUCUCUUGAAGGAAAGCAGGAGCUCAGACUCUUAGAUGGAAUUCUCGGGUGCCAA,0.268
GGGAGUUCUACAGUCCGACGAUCGCUAAAGUCUCCUCAGUGUGCAGCCAGAUUCCUGGGGACUGCUGAGUGUGGUUACAGGCUGCAUUUCAGACAAUGACCAGGUUUACUUUUCAGAUCACAAAGCAAACAGUUGGAAUUCUCGGGUGCCAA,0.316

# Single results of other studies
Substance,target,assay,system,conditions,scale,quantity,value
"PhoQ, residues 284 288 289 292 302 303 SSCLAV","PhoP, residues 12 14 15 18 19 LHTVM (Escherichia coli, UniProt P23836)","Sort-seq, measured: YFP reporter",E. coli,"PhoQ-PhoP variant library, with: 10 µM Mg2+","reference: high Mg2+ state, higher = stronger signaling",fold induction,7.38
